Measurements of several laboratories.
Each line is one published result; not all experiments were run side by side. ± marks the error that the study gave. In brackets after ≈: the same amount, converted by molar mass.

Cc1cc(Nc2ncc(Cl)c(Nc3ccccc3S(=O)(=O)C(C)C)n2)c(OC(C)C)cc1C1CCNCC1  AUC(tau) at steady state (measured: total drug; patients, plasma; oral, 750 or 450 mg/day, arithmetic mean): 23.7 µM·h
CCCOc1ccc([C@H]2CNC(=O)N2c2ccc3[nH]cnc3c2)cc1  Tmax (human, plasma; oral, 400 mg, single dose, fasted): 0.5 h
CN(C)C(=O)c1cc2cnc(Nc3ccc(N4CCS(=N)(=O)CC4)cn3)nc2n1C1CCCC1  thermodynamic solubility (shake flask; water; pH 6.5): 22 µg/mL (≈ 45.6 µM)
CC1(C)Oc2cc3oc(=O)ccc3cc2C[C@@H]1O  organ weight (CD-1 mouse, male, heart; oral gavage, 80 mg/kg daily, 4 weeks): 0.18 ± 0.01 g
C[C@@H]1CCC[C@H](n2cnc(-c3cc(Cl)ccc3-n3cc(Cl)nn3)cc2=O)c2cc(ccn2)-c2c(cnn2C(F)F)NC1=O  Tmax (human, plasma; oral, 20 mg, single dose, fasted, healthy volunteers): 3 h
CCc1cc2c(cc1N1CCC(N3CCOCC3)CC1)C(C)(C)c1[nH]c3cc(C#N)ccc3c1C2=O  adverse events count (healthy humans; oral, 300 mg single dose): 2
Cc1ncnc2c1c(Cl)cn2[C@@H]1O[C@H](CO)[C@@H](O)[C@H]1O  compound remaining (metabolic stability; mouse, liver microsomes; 1 h): 98%
CCCC[C@@H]1NC(=O)[C@@H](NC(=O)[C@H](CCC(=O)O)NC(=O)CNC(=O)CN2CCN(CC(=O)O)CCN(CC(=O)O)CCN(CC(=O)O)CC2)CCCCNC(=O)C[C@@H](C(N)=O)NC(=O)[C@H](C(C)C)NC(=O)[C@@H]2CCCN2C(=O)[C@H](CCCNC(=N)N)NC(=O)CNC(=O)[C@H](Cc2c[nH]c3ccccc23)NC(=O)[C@H](CCCNC(=N)N)NC(=O)[C@@H](Cc2ccccc2)NC(=O)[C@H](Cc2c[nH]cn2)NC(=O)[C@H](CCC(=O)O)NC1=O [indium-111 labelled]  tissue uptake (C57 mice, B16/F10 lung metastatic melanoma, blood; intravenous, 0.037 MBq, 2 h): 0.12 ± 0.05 %ID/g
CCC(C)n1ncn(-c2ccc(N3CCN(c4ccc(OCC5COC(Cn6cncn6)(c6ccc(Cl)cc6Cl)O5)cc4)CC3)cc2)c1=O (stereo not drawn)  thermodynamic solubility (shake-flask; soybean oil; 37 °C): 0.09 ± 0.01 mg/g
Cc1cc(-c2cc(OC(=O)c3ccccc3)ccc2Cl)cc2nnc(Nc3ccc(OCCN4CCCC4)cc3)nc12  concentration (Long Evans rat, sclera/choroid; topical, 1%, 24 h): 843 nM
O=C(CCCN1CC=C(n2c(=O)[nH]c3ccccc32)CC1)c1ccc(F)cc1  QTc change (male Hartley guinea pig, anaesthetized; intravenous infusion, 0.03 mg/kg, 10 min infusion; relative to: baseline): 2.1 ± 3.2%
Cc1cccc(Nc2ccccc2C(=O)O)c1C  thermodynamic solubility (shake-flask; PEG400; 37 °C): 25.1 ± 0.86 mg/g
Cc1cccc(C)c1OCC(=O)N[C@@H](Cc1ccccc1)[C@@H](O)C[C@H](Cc1ccccc1)NC(=O)[C@H](C(C)C)N1CCCNC1=O  absorptive clearance per length (rabbit, duodenum, in situ perfusion; 30 µg/mL): 0.0049 mL/min/cm
CCCCN1CCC(N(Cc2ccccc2)C(=O)Nc2ccc(Cl)c(Cl)c2)CC1  intrinsic clearance (CD-1 female mouse, liver microsomes; 0.8 µM): 25 mL/min/kg
Nc1nc(NC2CC2)c2ncn([C@H]3C=C[C@@H](CO)C3)c2n1  effective permeability (equilibrium dialysis; cellulose membrane, cell-free; pH 7.4, added: 0.5% w/w Pluronic P85): 115 ± 26 ×10⁻⁶ cm/s
COc1ccc2c(c1OC)C(=O)O[C@@H]2[C@H]1c2c(cc3c(c2OC)OCO3)CCN1C  thermodynamic solubility (shake-flask; soybean oil; 37 °C): 1.91 ± 0.15 mg/g
N[C@@H](CC(=O)N1CCn2c(nnc2C(F)(F)F)C1)Cc1cc(F)c(F)cc1F  AUC(0-2 h) (healthy Korean subjects, plasma; oral, 100 mg single dose, ABCB1 G2677T/A GA): 453 ± 169 ng·h/mL
CC(C)=CCC[C@](C)(O[C@@H]1O[C@H](CO[C@@H]2O[C@H](CO)[C@@H](O)[C@H](O)[C@H]2O)[C@@H](O)[C@H](O)[C@H]1O)[C@H]1CC[C@]2(C)[C@@H]1[C@H](O)C[C@@H]1[C@@]3(C)CC[C@H](O[C@@H]4O[C@H](CO)[C@@H](O)[C@H](O)[C@H]4O[C@@H]4O[C@H](CO)[C@@H](O)[C@H](O)[C@H]4O)C(C)(C)[C@@H]3CC[C@]12C  recovery (Sprague Dawley rat, male, small intestine site 4 contents; oral, 0.3 g/kg TU-100, 2 h, no β-glucuronidase treatment; relative to: ingested amount): 42.3%

Repeated from above:
CC1(C)Oc2cc3oc(=O)ccc3cc2C[C@@H]1O  organ weight (CD-1 mouse, male, heart; oral gavage, 80 mg/kg daily, 4 weeks): 0.18 ± 0.01 g
C[C@@H]1CCC[C@H](n2cnc(-c3cc(Cl)ccc3-n3cc(Cl)nn3)cc2=O)c2cc(ccn2)-c2c(cnn2C(F)F)NC1=O  Tmax (human, plasma; oral, 20 mg, single dose, fasted, healthy volunteers): 3 h
CCc1cc2c(cc1N1CCC(N3CCOCC3)CC1)C(C)(C)c1[nH]c3cc(C#N)ccc3c1C2=O  adverse events count (healthy humans; oral, 300 mg single dose): 2
